Published values from different studies.
Numbered parts are unrelated; each lists some results of a single study. Positions count from the first letter of the parent shown.
Chain of UniProt Q9C0B0 (30-357, looked up): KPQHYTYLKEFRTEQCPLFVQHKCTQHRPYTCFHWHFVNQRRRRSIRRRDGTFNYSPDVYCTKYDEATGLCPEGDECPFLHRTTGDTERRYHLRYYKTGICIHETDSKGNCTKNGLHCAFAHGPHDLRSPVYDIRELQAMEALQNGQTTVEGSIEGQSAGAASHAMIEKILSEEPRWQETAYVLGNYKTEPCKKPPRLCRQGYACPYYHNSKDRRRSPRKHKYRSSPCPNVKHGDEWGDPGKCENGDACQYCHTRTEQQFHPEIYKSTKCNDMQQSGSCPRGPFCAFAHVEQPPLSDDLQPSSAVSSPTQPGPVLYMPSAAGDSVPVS

Set 1 — technique: RNA Bind-n-Seq; form: RNA; matrix: in vitro; concentration: 365 nM; reference: no-protein control; direction: higher = stronger binding
Target: RNA binding protein fox-1 homolog 2, RRM domain, GST-SBP tag (RBFOX2, Homo sapiens, UniProt O43251-10, residues 100-194)
Setting: natural RNA segment, single round, ends assumed
Constant ends, left off below: GGGAGUUCUACAGUCCGACGAUC … UGGAAUUCUCGGGUGCCAA
Residues (chain): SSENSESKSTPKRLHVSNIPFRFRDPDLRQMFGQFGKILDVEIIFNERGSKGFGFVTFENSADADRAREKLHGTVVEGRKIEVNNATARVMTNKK
Strand	RBNS enrichment (R)
UGAAAGCAGUGUGAUACCCAAGUCAUAGGUGCUUCUCGUAUGUGAACAGGUGUCAUUCUACAGAUCUGUUAUGUGUUUUCCUGUUGACUCUUAAGAGUCCCUGCAUGUAA	22.9
UGGGCUUGUUCUUCAUGCCUAACUUAAUAAUUUUUAAGAGAUUAAAGUGCCAGAUGGAGUUUAAAUAUUGAAAUUAUUUUAAAAGGUAGGUGUCUUUAAGAAAAUAACAA	0.452
UUCAACUCCUGUUAAUACCCAUAAUCAGUAACCUAUCAAGAAAAGCCCUUAUUUGGAAAGUGUGAAAUUUGUAUUUGGAAAAGCUGCCUGGAGAGAAGAACUGUGUCCUU	0.92
GACCCUACCCCUUCCAUGUCCCACCCCACUCCCACCAAAAAGUACAAAAUCAGGAUGUUUUUCACUGUCCAUUGCUUUGUGUUUUAAUAAACAAUUUGCAGUGACACUCU	0.61
UAUCACACCAUCGCUGGCCCCUUUGGGCCCUGCAUGUAGUGUGGGAGGCUCCUGUUAGCUCCUCACUGUGGUAAAUGCCACACACCUUUAAGUAGAUAAGCAGACGAUAG	0.431
GAAGUACCCCUGGAUCAUGUCCGAGUUUUUGUCUUUCACUGUCUGAAUCAUGUUCCAGCUGCUUGACCCUACCGUGUGGGUUCAGAGCUCGUUUGGGCGUAACAACUAAG	0.269
GUAAGCAUGCAUGGAGGCCUCGAGGCACCACAACAAGGCCAGGUUCUUAGCACAUCCUCUGUUCUCUACCUGUCAUGCUUCAAGAGUUCCAGCUGGCCUGCUGUGAAGCC	19
GAGCGCGUGCGGGCAGCCCGCAUGCUGCUGGCCAGGAGCCCCCAGUGCCCUGUGGUGGUGGACACAAUGCAGAACCAGAGCAGCCAGCUCUACGCGGCCCUGCCUGAGAG	0.474
UUGCCUCCCCCGACCGCCAUGGAGGGGGCAGCCCGGCACAGCUGCUGGGAGCCCUUGUGUGUCUGGUCACACUUUUUAGGCGUCACGCCAAAGGCCAGCCUCCUGGCCCC	0.305
GGAAGGAAGGCCAGGCUAGUUUAGGGCUCAGCGCGUCUCACCAGAGCCCUUCCAUACUCUGUGACUCUCAGUGUGAAUUGGAAUGCAAUUCUUUCCCUAAAAUGUGUGGA	1.72
CAGCCUCCCAAGUAGCUGGGAUUACAAGCAUGUGCCACCAUGCCCAGCUAAUUUCUGUAUUUUAGUAGAGACAAGGUUUCACCAUGUUGGCCAGGCUGGUCUCGAACUCC	0.711
CUCAGCAGAACUAUAGCCAAUGUUUUGUUUUGUUUUCCUGAAUGCUAUCUUAUUUUUUUUCUUAUAGAAUUAAUCACAGGUCUUCUUAUCAUUGUGAAAACUCAUGUUGU	0.796

Set 2 — target: CCNB3, cyclin fold, Cln2 fusion (human); technique: yeast growth competition, sequencing; matrix: yeast; setting: weak parent motif; reference: not given; direction: higher = stronger binding
Starting sequence: SAMHD1 docking peptide (human); ASKSRVQLFKDDP
Change	normalised enrichment score
S2R	-0.243
V6Q	-1.01
K10G	0.0804
V6A	0.162
S4P	-0.0186
D12I	0.135
K10R	-0.00327
K10E	0.0994
R5G	-0.311
R5I	0.111
D11C	0.392
V6L	-0.173
D11P	0.113
K10I	-0.0899
D12F	-0.222
D11S	0.601
S2E	0.0963
D12V	0.389
Q7H	0.164
S2Y	0.0822
L8H	-0.33
K10V	-0.237
D11Q	-0.166
S4G	-0.0876

Set 3 — technique: DHFR PCA, dose-response; matrix: yeast; setting: Hill fit, mean, not affinity; added: (+)-ABA, dose series; direction: lower = more sensitive
Target: ABI1, truncated, D143A, DHFR fusion (Arabidopsis thaliana, UniProt P49597)
Starting sequence: PYL1, truncated, DHFR fusion (Arabidopsis thaliana, UniProt Q8VZS8); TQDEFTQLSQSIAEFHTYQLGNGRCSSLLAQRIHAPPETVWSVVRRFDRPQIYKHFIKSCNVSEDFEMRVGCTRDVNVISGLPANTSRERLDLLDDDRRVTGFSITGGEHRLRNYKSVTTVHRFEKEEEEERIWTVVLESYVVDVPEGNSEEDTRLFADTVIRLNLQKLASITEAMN
Change	ABA EC50 [µM]
R46N	15.9
R45K	9.32
D75R	2.34
K126H	1.79
G21T	3.03
L82S	298
E151T	3.55
E129V	3.86
P37T	15.6
N22A	2.36
S9H	2.73
K116T	5.36
R49A	2.68
P36W	36.6
G81R	395
G81H	376
Q167S	0.979
C60M	156
V62E	237
R24P	207
Y18W	3.69
E127C	3.01
F157M	20.1
R111T	228
I57Q	180

Set 4 — target: BATF2, bZIP domain (human); technique: DHFR protein complementation; matrix: yeast; reference: wild-type JUN-FOS pair; direction: higher = stronger binding
Setting: single substitutions, most at no-binding floor
Starting sequence: JUN, bZIP domain (human); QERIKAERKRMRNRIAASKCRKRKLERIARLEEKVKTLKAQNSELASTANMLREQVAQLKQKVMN; partner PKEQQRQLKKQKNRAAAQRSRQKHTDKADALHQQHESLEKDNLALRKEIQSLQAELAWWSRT
Change	binding fitness
A29G	-0.477 natural log
L45R	-1.36 natural log
N42V	-1.36 natural log
E32P	-1.39 natural log
V56H	-1.55 natural log
Q55P	-1.47 natural log
R53L	-1.19 natural log
E54I	-0.46 natural log
S47G	-0.345 natural log
I28K	-0.556 natural log
A49L	-0.502 natural log
V35W	-1.29 natural log
E44K	-0.799 natural log
E44S	-0.484 natural log
K39N	-0.748 natural log
L52A	-1.31 natural log
A40M	-0.377 natural log
K39T	-0.349 natural log
L31T	-1.05 natural log
Q41G	-1.27 natural log
A49Q	-1.25 natural log
E32S	-0.511 natural log
L59P	-1.41 natural log
V35T	-0.586 natural log
I28G	-0.541 natural log

Set 5 — target: UBE2V2 UBC core domain (UniProt Q15819); technique: yeast two-hybrid; matrix: yeast; setting: mostly zero background; reference: not given; direction: higher = stronger interaction
Chain of UniProt Q15819 (whole entry, looked up): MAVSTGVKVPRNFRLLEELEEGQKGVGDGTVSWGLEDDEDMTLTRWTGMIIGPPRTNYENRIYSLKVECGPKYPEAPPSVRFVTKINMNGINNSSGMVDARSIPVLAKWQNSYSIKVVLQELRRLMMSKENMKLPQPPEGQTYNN
B1: MAP3K1 RING domain (UniProt Q13233); chain NSIKDEEEQMCPICLLGMLDEESLTVCEDGCRNKLHHHCMSIWAEECRRNREPLICPLCRSKWRSHDFYS
B2: UBOX5 RING domain (UniProt O94941); chain EQPGSILGPECASCKRVFSPYFKKEPVYQLPCGHLLCRPCLGEKQRSLPMTCTACQRPVASQDVLR
B3: RNF19A RING domain (UniProt Q9NV58); chain ISKQIGDFIECPLCLLRHSKDRFPDIMTCHHRSCVDCLRQYLRIEISESRVNISCPECTERFNPHDIR
B4: TRIM62 RING domain (UniProt Q9BVG3); chain MACSLKDELLCSICLSIYQDPVSLGCEHYFCRRCITEHWVRQEAQGARDCPECRRTFAEPALAP
B5: RNF121 RING domain (UniProt Q9H920); chain MPTKHLSDSVCAVCGQQIFVDVSEEGIIENTYRLSCNHVFHEFCIRGWCIVGKKQTCPYCKEKVDLKRMFS
B6: DTX2 RING domain (UniProt Q86UW9); chain EELKVPPDEDCIICMEKLSTASGYSDVTDSKAIGSLAVGHLTKCSHAFHLLCLLAMYCNGNKDGSLQCPSCKTIYGEKTGTQ
B7: ZMIZ2 RING domain (UniProt Q8NF64); chain GTIPGTPGPNGEDGVEQTAIKVSLKCPITFRRIQLPARGHDCRHIQCFDLESYLQLNCERGTWRCPVCNKTALLEGLEVDQYMLGILIYIQNSDYEEITIDPTCSWK
B8: SH3RF1 RING domain (UniProt Q7Z6J0); chain DESALLDLLECPVCLERLDASAKVLPCQHTFCKRCLLGIVGSRNELRCPECRTLVGSGVEEL
B9: RBCK1 RING domain (UniProt Q9BYM8); chain SLVLNTEPAECPVCYSVLAPGEAVVLRECLHTFCRECLQGTIRNSQEAEVSCPFIDNTYSCSGKLLEREIK
B10: RFWD3 RING domain (UniProt Q6PCD5); chain ASMDEEEGDTCTICLEQWTNAGDHRLSALRCGHLFGYRCISTWLKGQVRKCPQCNKKARHSDIVV
Sequence	lacZ reporter activity
AVPSGLEENLCKICMDSPIDCVLLECGHMVTCTKCGKRMNECPICRQYVIRAVHVF (RFFL RING domain (UniProt Q8WZ73))	0
B1 (MAP3K1 RING domain)	0
B2 (UBOX5 RING domain)	0
B3 (RNF19A RING domain)	0
FDGDVDPDLKCALCHKVLEDPLTTPCGHVFCAGCVLPWVVQEGSCPARCRGRLSAKELN (PDZRN3 RING domain (UniProt Q9UPQ7))	0
AMYLQENGIDCPKCKFSYALARGGCMHFHCTQCRHQFCSGCYNAFYAKNKC (RNF31 RING domain (UniProt Q96EP0))	0
B4 (TRIM62 RING domain)	0
B5 (RNF121 RING domain)	0
KLRKLKEAMLCMVCCEEEINSTFCPCGHTVCCESCAAQLQSCPVCRSRVEHVQHVY (MYLIP RING domain (UniProt Q8WY64))	0
B6 (DTX2 RING domain)	0
B7 (ZMIZ2 RING domain)	0
B8 (SH3RF1 RING domain)	0
NLSELTPYILCSICKGYLIDATTITECLHTFCKSCIVRHFYYSNRCPKCNIVVHQTQPLY (PCGF6 RING domain (UniProt Q9BYE7))	0
B9 (RBCK1 RING domain)	0
B10 (RFWD3 RING domain)	0

Other studies, line by line
Strand	target	test	test system	setting	scale	quantity	value
GGGAGUUCUACAGUCCGACGAUCACUGUUGUUAAGCACUGUGUUCCAGACCGUGUCUGACUCCGUGUAACCCCGGAGAUUUUACCGUUUUAUUUUAAUGAAACCCUGAUUGACGCACAGCAGUGGGGAGAACAGCGUCUUUUACAACAGAGGAUUGAGCAUCA	RING finger protein unkempt homolog, zinc fingers 1-6, SBP tag (UNK, Homo sapiens, UniProt Q9C0B0, residues 30-357)	RNA Bind-n-Seq	RNA, in vitro	100 nM, RNA with constant flanks, ends assumed	reference: input RNA pool, higher = stronger binding	bound/input enrichment	0.46 ratio

Some of these lines once more (set 2):
Change	normalised enrichment score
D11Q	-0.166
K10I	-0.0899
K10R	-0.00327
D11C	0.392
R5G	-0.311
D12V	0.389
S4G	-0.0876
V6A	0.162
S4P	-0.0186
D12F	-0.222
K10E	0.0994
S2Y	0.0822
V6L	-0.173
D11S	0.601
D11P	0.113
